Experimental data from different studies.
± gives the spread as reported.

CC(C)Cc1ccc(C(C)C(=O)N/N=C/c2ccc(OCC(=O)N/N=C/c3cccc(O)c3)cc2)cc1 (stereo not shown)
viability (U87 MG; MTT; 150 µM, 48 h): 94.8%

CO[C@H]1N(OC)c2ccccc2[C@@]12CN=C(Nc1cc(C(F)(F)F)cc(C(F)(F)F)c1)S2 (relative stereo)
early apoptotic cells (HCT-116; annexin V/PI flow cytometry; 40 µM, 48 h): 34.8 ± 4.88%

CC(C)c1cnn2c(NCc3ccccc3)cc(N[C@@H](CO)[C@H](O)CO)nc12
GI50 ratio (NIH-3T3 pHamdr1 (ABCB1-overexpressing); cell growth, sulforhodamine B; baseline: pHamdr1 over parental 3T3): > 2

CC1(C)OC(=O)C[C@H](O)[C@]2(C)[C@H]3CC[C@@]4(C)[C@H](c5ccoc5)OC(=O)[C@H]5O[C@]54[C@]3(C)C(=O)C[C@@H]12
combination index (COLO 320 (ABCB1-overexpressing, multidrug-resistant); cell growth; 200 µM starting, CI at ED50, added: doxorubicin, ratio 92.8:1): 0.67

COc1cc(CNC(=O)C[C@H](C)CCC=C(C)C)ccc1O
growth percent (ACHN; SRB; 10 µM, 48 h): 96.2%

COC[C@@H](C)N[C@H]1CC[C@H](Nc2cc(-c3cccc(NCC4(C#N)CCOCC4)n3)c(Cl)cn2)CC1
EC50 (primary human tonsillar lymphocytes; cytotoxicity; 72 h): ~7.1 nM

COc1cc(CNC(=O)C[C@H](C)CCC=C(C)C)ccc1OCc1cn(-c2cccc(Cl)c2)nn1
growth (LOX IMVI; SRB; 10 µM, 48 h): 75.1%

Cc1ncsc1-c1ccc([C@H](C)NC(=O)[C@@H]2C[C@@H](O)CN2C(=O)[C@@H](NC(=O)[C@H]2C[C@H](C(=O)N3CCC(c4cc(Nc5cc(C#N)ccn5)nc(N5CCC(F)(F)C5)c4)CC3)C2)C(C)(C)C)cc1
effective concentration (HNSCC cell lines; cell viability, colony formation): 500 nM

CC(C)C[C@H](NC(=O)[C@H](CC(C)C)NC(=O)[C@@H](N)C(C)C)C(=O)N[C@@H](CO)C(=O)N1CCC[C@H]1C(=O)N[C@@H](CC(C)C)C(=O)N[C@@H](CO)C(=O)N[C@@H](CCCNC(=N)N)C(=O)N[C@H](C(=O)O)C(C)C
peptide-MHC complexes per cell (SK-N-MC, HLA-A*02:01; quantitative immunopeptidomics; added: IFN-γ): 43

Cc1cc(Nc2ccc(NC(=O)c3ccc(NC(=O)c4ccncc4)cc3)cc2)nc(N)n1
reporter reactivation (KG-1 with methylated CMV-luciferase; luciferase reporter gene; 1 µM, 24 h; baseline: untreated): 1 ± 0.1 fold

CS(=O)(=O)c1ccc(-c2nnc(/C=C/c3nnc(-c4ccc(C#N)cc4)o3)n2-c2ccccc2Cl)nc1
DNA synthesis (COLO 320DM; BrdU incorporation; concentration not given, 48 h): decreased

CN1CCN(c2ccc3nc(-c4cccc(N5CCc6cc(Cl)ccc6C5)c4)[nH]c3c2)CC1
EC50 (HT-22; protection from ferroptosis, CCK-8 viability; 24 h, added: 1 µM erastin): 510 nM

COc1cc(CNC(=O)C[C@H](C)CCC=C(C)C)ccc1OCc1cn(-c2cccc(C(F)(F)F)c2)nn1
growth percent (ACHN; SRB; 10 µM, 48 h): 77.6%

Cc1nc(C)c(C=[N+]([O-])C(C)(C)C)nc1C
ATP content increase (rat primary cerebellar granule neurons; 100 µM, added: MPP+): 36.8%

CC(=O)OC[C@H]1O[C@@H](Sc2sc(C(=O)c3ccc(C)cc3)c(N)c2-c2nc3ccccc3s2)[C@H](OC(C)=O)[C@@H](OC(C)=O)[C@H]1OC(C)=O
growth (OVCAR-5; SRB; 10 µM, 48 h; baseline: untreated): 99.7%

CC/C=C\C/C=C\C/C=C\C/C=C\C/C=C\C/C=C\CCC(=O)Nc1ccn(C2OC(CO)C(O)C2(F)F)c(=O)n1 (stereo not shown)
TGI (ACHN; NCI60 screen): 10100 nM

CC(C)Cc1ccc(C(C)C(=O)N/N=C/c2ccc(OCC(=O)N/N=C/c3c(O)ccc4ccccc34)cc2)cc1 (stereo not shown)
viability (U87 MG; MTT; 80 µM, 48 h): 99%

COc1cc(CNC(=O)C[C@H](C)CCC=C(C)C)ccc1OCc1cn(-c2ccccc2F)nn1
growth percent (T47D breast cancer cells; SRB; 10 µM, 48 h): 60.6%

[Cl-].[Cl-].[Ru+2].c1ccc(-c2cc(-c3ccccn3)nc(-c3ccccn3)c2)cc1.c1ccc(-c2ccnc3c2ccc2c(-c4ccccc4)ccnc23)cc1
lowest concentration inhibiting OCR (A549; oxygen consumption rate, Seahorse extracellular flux; 1 h, dark): > 3.3 µM

O=Cc1c(O)ccc2ccccc12
log2 fold change (HUVEC; RNA sequencing, refers to: DHCR24; 75 µM, 24 h; baseline: DMSO): -3.06

COc1cccc(/C=N/NC(=O)COc2ccc(/C=N/NC(=O)C(C)c3ccc(CC(C)C)cc3)cc2)c1O (stereo not shown)
viability (U87 MG; MTT; 100 µM, 48 h): 27.6%

Nc1nc2cc(CC[C@H]3C[C@@H](n4ccc5c(N)ncnc54)[C@H](O)[C@@H]3O)ccc2cc1Br
inhibition (NCI-H1048; SmD1/3 dimethylation, refers to: SmD1/3-Me2; 10 nM, 48 h): 80%

COc1ccc(NC(=O)COc2ccc(/C=C/C(C)=N/O)cc2OC)cc1
cells expressing TNF-α (SH-SY5Y; flow cytometry; 10 µM, added: amyloid-β 10 µM): 19.8%

CN1CCN(C(=O)N(CCCCCCC(=O)NO)c2ccc(-c3ccc4cnn(C)c4c3)cc2)CC1
protein level (MM1.S and RPMI-8226; immunoblot, refers to: cyclin D1 and CDK4; concentration not given): decreased

N[C@H](CSC(F)(F)[18F])C(=O)O
protein incorporation (C6; concentration not given, 30 min): ~5%

Cc1nn(-c2ccc(S(=O)(=O)N[C@H](CO)CC(C)C)cc2)c2nn3nnnc3nc12
tail DNA (HT-29; DNA damage, alkaline comet; 2 µM, 24 h): 24.1 ± 2.83%

COc1cc(CN2CCN(c3ccc(F)cc3)CC2)c2cc3[n+](cc2c1O)CCc1cc2c(cc1-3)OCO2
therapeutic index (HeLa and MDCK; SRB; 48 h; baseline: CC50 MDCK over IC50 HeLa): 31.5

COc1cc(CNC(=O)C[C@H](C)CCC=C(C)C)ccc1OCc1cn(-c2ccccc2[N+](=O)[O-])nn1
growth percent (T47D breast cancer cells; SRB; 10 µM, 48 h): 14.6%

COc1cc(CN2CCN(c3ccc(C)cc3)CC2)c2cc3[n+](cc2c1O)CCc1cc2c(cc1-3)OCO2
therapeutic index (HeLa and MDCK; SRB; 48 h; baseline: CC50 MDCK over IC50 HeLa): 32.7

CC(C)C[C@@H]1NC(=O)[C@H](C(C)C)NC(=O)[C@H](CC(N)=O)NC(=O)[C@H](CO)NC(=O)[C@H](CO)NC(=O)[C@H](CC(=O)O)NC(=O)[C@H](CC(=O)O)NC(=O)[C@H](Cc2ccccc2)NC(=O)[C@H](Cc2ccc(O)cc2)NC(=O)[C@@H](N)CSSC[C@@H](C(=O)N[C@@H](CCCCN)C(=O)N[C@@H](CCCCN)C(=O)N[C@@H](Cc2ccc(O)cc2)C(=O)N[C@@H](CCCNC(=N)N)C(=O)N[C@@H](CO)C(=O)O)NC1=O
mRNA level (MCT cells; qPCR, refers to: Snail, CTGF; concentration not given, added: TGF-β1 and EGF): inhibited

CCOC(=O)c1nc2cc(Cl)c(Cl)cc2nc1N1CCN(C(=O)Nc2ccc(N3CCNCC3)cc2)CC1
Tnfα mRNA level (RAW264.7; qRT-PCR; concentration not given, added: LPS; baseline: LPS alone): increased

COCCO[C@H]1CC[C@H](Nc2cc(=O)n(C)c3ccc(-c4cncs4)cc23)CC1
IFN-γ increase (PBMC; ELISA; 10 µM, 48 h; baseline: untreated): 82.9%

COc1cc2c(OC3OCC(OC)C(OC)C3OC(=O)c3ccc(Br)cc3)c3c(c(-c4ccc5c(c4)OCO5)c2cc1OC)C(=O)OC3 (stereo not shown)
mRNA level (CAL-27; RT-qPCR, refers to: CTSD; concentration not given, 72 h): decreased

COc1ccc([C@@H]2CC(=O)c3c(O)cc(O[C@@H]4O[C@H](CO[C@@H]5O[C@@H](C)[C@H](O)[C@@H](O)[C@H]5O)[C@@H](O)[C@H](O)[C@H]4O)cc3O2)cc1O
gap closure (A549; cell migration, scratch; 150 µg/mL, 0 h): 0%

COc1cc(CNC(=O)C[C@H](C)CCC=C(C)C)ccc1OCc1cn(-c2ccc(C#N)cc2)nn1
growth percent (MDA-MB-435 melanoma cells; SRB; 10 µM, 48 h): 81.3%

COc1ccc(S(=O)(=O)N2CCc3ccccc3C2)cc1N1CCN(C(=O)c2ccc(F)cc2C(F)(F)F)CC1
TH-positive neuron count (mouse midbrain dopamine neurons; 3.5 µM, 5 days): 362 ± 23.9

CCN1CCC2(CC1)C/C(=N\NC(=O)Nc1ccccc1)c1ccccc1O2
apoptotic cells (A549; annexin V-FITC/PI; concentration not given, 24 h, Late apoptosis): 11.5%

CC(CCC(=O)NCc1ccc(C(=O)NO)cc1)C1CCC2C3C(O)CC4CC(O)CCC4(C)C3CCC12C (stereo not shown)
primary cilium length (normal cholangiocytes (human); 2 µM): no effect

Cc1ccc(Nc2ncc3c(n2)N(C)C(=O)N(c2cc(NC(=O)c4ccc(N5CCN(C)CC5)c(C(F)(F)F)c4)ccc2C)C3)cn1
GI50 (Hep3B; cell growth or viability, ATP luminescence; 72 h): 138 nM

COc1ccc(/C=N\NC(=O)[C@]2(C)C3CC[C@]4(C)C(C(=O)C=C5C6[C@@H](C)[C@H](C)CC[C@]6(C)CC[C@]54C)[C@@]3(C)CC[C@H]2OC(C)=O)cc1O (stereo partly shown)
inhibition (RAW264.7; NO release, inhibitor, Griess; 10 µM, 24 h, LPS-stimulated): 85.2%

O=C(N1CCCC1)n1cc(-c2ccc(-c3ccccc3)cc2)nn1
SILAC ratio (mouse T-cells; N-terminal labeled proteins, N-terminal enrichment proteomics, refers to: EFHD2; 1 nM, 6 h; baseline: DMSO): 0.97 ± 0.18

COc1cc(CNC(=O)C[C@H](C)CCC=C(C)C)ccc1OCc1cn(-c2ccccc2)nn1
growth percent (RXF 393; SRB; 10 µM, 48 h): 90.8%

Brc1ccc(Nc2nc(NN=Cc3c[nH]c4ccccc34)nc(N3CCOCC3)n2)cc1
protein level (SK-BR-3; Western blot, refers to: LC3-II; concentration not given, 12 h): increased

CC(C)C(=O)Cc1c(OCC(O)C(C)(C)O)ccc2ccc(=O)oc12 (stereo not shown)
combination index (COLO 320 (ABCB1-overexpressing, multidrug-resistant); cell growth; 200 µM starting, CI at ED50, added: doxorubicin, ratio 23.2:1): 0.86

COc1cc(CNC(=O)C[C@H](C)CCC=C(C)C)ccc1OCc1cn(-c2ccc(F)cc2)nn1
growth percent (Hs-578T breast cancer cells; SRB; 10 µM, 48 h): 33.7%

CC(C)Cc1ccc(C(C)C(=O)N/N=C/c2ccc(OCC(=O)N/N=C/c3ccc([N+](=O)[O-])cc3)cc2)cc1 (stereo not shown)
viability (U87 MG; MTT; 100 µM, 48 h): 73.9%

C[C@H](NC(=O)CNC(=O)[C@H](CCC(=O)O)NC(=O)[C@H](CCC(=O)O)NC(=O)[C@H](CC(=O)O)NC(=O)[C@@H]1CCCN1C(=O)[C@H](Cc1ccccc1)NC(=O)[C@H](CS)NC(=O)[C@H](Cc1ccc(O)cc1)NC(=O)CCCNC(=O)CNC(=O)CNC(=O)[C@@H](C)NC(=O)CN)C(=O)N[C@@H](CS)C(=O)N[C@@H](Cc1ccc(O)cc1)C(N)=O [technetium-99m labelled]
internalization (SK-BR-3; 8 h, 37 °C): 15.3 ± 0.2%

CC(=O)OC[C@H]1O[C@@H](Sc2sc(C(=O)c3ccc(Br)cc3)c(N)c2-c2nc3ccccc3s2)[C@H](OC(C)=O)[C@@H](OC(C)=O)[C@H]1OC(C)=O
growth (ACHN; SRB; 10 µM, 48 h; baseline: untreated): 90.5%

CC(=O)c1c(C)c2cnc(Nc3ccc(N4CCNCC4)cn3)nc2n(C2CCCC2)c1=O
concentration at maximal effect (mAb-expressing recombinant CHO; growth arrest; 24 h, added at day 0): 5 to 10 µM

Repeated from above:
Cc1nn(-c2ccc(S(=O)(=O)N[C@H](CO)CC(C)C)cc2)c2nn3nnnc3nc12
tail DNA (HT-29; DNA damage, alkaline comet; 2 µM, 24 h): 24.1 ± 2.83%

CC(C)C[C@H](NC(=O)[C@H](CC(C)C)NC(=O)[C@@H](N)C(C)C)C(=O)N[C@@H](CO)C(=O)N1CCC[C@H]1C(=O)N[C@@H](CC(C)C)C(=O)N[C@@H](CO)C(=O)N[C@@H](CCCNC(=N)N)C(=O)N[C@H](C(=O)O)C(C)C
peptide-MHC complexes per cell (SK-N-MC, HLA-A*02:01; quantitative immunopeptidomics; added: IFN-γ): 43

CC(=O)OC[C@H]1O[C@@H](Sc2sc(C(=O)c3ccc(Br)cc3)c(N)c2-c2nc3ccccc3s2)[C@H](OC(C)=O)[C@@H](OC(C)=O)[C@H]1OC(C)=O
growth (ACHN; SRB; 10 µM, 48 h; baseline: untreated): 90.5%

Cc1nc(C)c(C=[N+]([O-])C(C)(C)C)nc1C
ATP content increase (rat primary cerebellar granule neurons; 100 µM, added: MPP+): 36.8%

CC(C)Cc1ccc(C(C)C(=O)N/N=C/c2ccc(OCC(=O)N/N=C/c3ccc([N+](=O)[O-])cc3)cc2)cc1 (stereo not shown)
viability (U87 MG; MTT; 100 µM, 48 h): 73.9%
